Published values of several laboratories.
Numbered parts are unrelated; each lists some results of a single study.

Study 1
Target: RING finger protein unkempt homolog, zinc fingers 1-6, GST-SBP tag (UNK, Homo sapiens, UniProt Q9C0B0, residues 30-357)
Method: RNA Bind-n-Seq
Molecule type: RNA
Sample: in vitro
Tested at: not given
Setting: RNA with constant flanks, ends assumed
Baseline: input RNA pool
Reading: higher = stronger binding
All sequences stand within: GGGAGUUCUACAGUCCGACGAUC … CAACAGAGGAUUGAGCAUCA
Residues (chain): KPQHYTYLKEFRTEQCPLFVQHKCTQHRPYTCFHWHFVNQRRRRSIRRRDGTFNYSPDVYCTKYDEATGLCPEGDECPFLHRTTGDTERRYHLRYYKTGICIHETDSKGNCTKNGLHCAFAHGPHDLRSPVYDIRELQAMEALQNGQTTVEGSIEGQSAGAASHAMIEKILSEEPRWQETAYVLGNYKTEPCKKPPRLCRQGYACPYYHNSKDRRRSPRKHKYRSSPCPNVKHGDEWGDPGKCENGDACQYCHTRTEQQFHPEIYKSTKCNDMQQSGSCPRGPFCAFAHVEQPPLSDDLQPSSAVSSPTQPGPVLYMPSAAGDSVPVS
Strand	bound/input enrichment [ratio]
GGUUUCCCCAAAGUCAGUAUUCUCCUCAGGGAUGCCAUUGAAAAGUUAUUUCCUGAUGCCAUCCGACUGAGAUUUGAAGACAUUCAGCAGAAUAAUGACAUAGUCCAAAGUCUUGCAGCC	0.662
UGGAGUGGAGGCUGAGCCCUCUUUCCUUGGCUUCCAUUUAAAAUGAACUUCACAACAUUCCCGCUAUUGAGGGAUGACAAAAGGAACCCAGAAAAGUGUGUAGGAAAUUACAAGCAGGUU	0.344
UAGAUUGUAUCGCUAAUUUUUACUUUUUAAAAAUUCAUUUAUGUGUGUAUUGUUUGCAUGUCCGGUGUGGGUAUGUGCAGACUAGAGGACUGUGGGAAUCACUUGGAGGUAGUUAUUACA	3.41
CUGAAGCCCAUGUUGCAGCGGGACUUUAUCACUGCUUUACCAGAGCAAGGCUUAGAUCACACCGCAGAAAACAUUCUCUCCUACCUGGAUGCCAGGUCUCUGUGUGCAGCAGAGCUGGUG	0.0674
UUGGAUUCAUUAGCAGAAAGCCCUGAGUCUGACUUUAUGUCUGCUGUGAAUGAGUUUGUGACCGAAGAAAAUUUAUCGUCUCCAAACCCUAUAAGUGAUCCACAAAGUCCAGAAAUGAUG	0.117
CCAAAGAAGAUACAGUAUGAAAGUAGAGGUGCACUCUCUAUAAUACAAUCUACUGUACAGUCCGCAAGCGAAGUGUUAAAUGGAGAAGAUGCUUGUUUUUAUUAAACAUUUGGAGAUUUA	0.16
CUGAAAGCUGCCAUUUCAGAACGUGAAGAGGUUAGAGGGAGAAGUGAACUGUUUCAUCCUGUCCGUGCCGACUGUAAGCUAAGGCAAAAAGCAACCACAAGAGCUGACACCGAUGUAGAC	0.138
CGCGAACGCGAGCCCCGCCCUGCGCGCCUUCCCUCCUGCGCUCGCCGGCCUCUUCUGCCUCUCCGAACCUUCCUGCGGUCGUGCUUGCAUCUCGCUGCUGCAGCCUCCCGGGCUCCGGUC	0.237

Study 2
Target: Interferon regulatory factor 7, full length, phosphomimetic (IRF7, Homo sapiens, UniProt Q92985, residues 1-503, S101K/S471D/S472D/S475D/S476D/S477D/S483D/S484D/S487D)
Method: protein-binding microarray
Molecule type: double-stranded DNA, one strand shown
Sample: in vitro
Tested at: 250 nM
Setting: 60-bp whole probe
Together with: salmon DNA 0.4 mg/ml
Baseline: random background probes
Reading: higher = stronger binding
All sequences stand within: GCCTAGCAC … GTCTTGATTCGCTTGACGCTGCTG
Construct (chain): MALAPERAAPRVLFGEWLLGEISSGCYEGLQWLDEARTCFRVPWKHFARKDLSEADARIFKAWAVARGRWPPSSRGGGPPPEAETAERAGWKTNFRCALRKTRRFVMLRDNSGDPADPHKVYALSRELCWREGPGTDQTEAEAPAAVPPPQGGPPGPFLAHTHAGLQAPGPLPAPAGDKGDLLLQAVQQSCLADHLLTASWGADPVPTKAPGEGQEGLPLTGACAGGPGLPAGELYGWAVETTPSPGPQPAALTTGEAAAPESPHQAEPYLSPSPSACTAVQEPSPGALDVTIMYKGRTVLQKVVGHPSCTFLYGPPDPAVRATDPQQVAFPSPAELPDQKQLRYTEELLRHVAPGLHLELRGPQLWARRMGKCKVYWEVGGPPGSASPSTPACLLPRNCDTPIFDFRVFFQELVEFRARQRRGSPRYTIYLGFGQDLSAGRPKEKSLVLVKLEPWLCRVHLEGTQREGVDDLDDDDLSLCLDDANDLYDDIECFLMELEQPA
Strand	log fluorescence [z-score]
GACGGACAGGGTTTCGGGACGTGCTAG	1.55
TTAAGTTTCGACTTTCGGTTAGTGCTA	12.3
TTATGACTGGGTATCGGTTAGTGCTAG	0.478
ACTAGATAAGACAAAGTGATGTGCTAG	-0.161
AATATTATAACACTCTTCTTGTGCTAG	0.783
TTGGATCTCAGTCTCGATTAGTGCTAG	1.35

Study 3
Target: Histone acetyltransferase KAT6A, winged helix 2, GST fusion (KAT6A, Homo sapiens, UniProt Q92794, residues 85-181)
Method: protein binding microarray
Molecule type: double-stranded DNA, one strand shown
Sample: in vitro
Tested at: not given
Setting: 8-mer, flanks averaged, mean of 2 arrays, mostly near background
Baseline: not given
Reading: higher = stronger binding
Target sequence (chain): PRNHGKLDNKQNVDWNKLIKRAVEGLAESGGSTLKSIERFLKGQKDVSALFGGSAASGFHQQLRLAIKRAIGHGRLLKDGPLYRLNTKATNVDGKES
Strand	E-score
ACCGGTAG	-0.154
GAAGATAA	0.0625
ACTAGGCC	-0.14
CAGTTGGG	0.0757
GACTACTC	-0.118
CCATTACC	-0.0668
CTTACGGC	0.00939
AGCTAGGC	-0.0159

Other studies, line by line
Substance	target	test	test system	conditions	scale	measurement	result
PhoQ, residues 284 288 289 292 302 303 SIHLQL	PhoP, residues 12 14 15 18 19 HLGGL (Escherichia coli, UniProt P23836)	Sort-seq, refers to: YFP reporter	E. coli	PhoQ-PhoP variant library, together with: 10 µM Mg2+	baseline: high Mg2+ state, higher = stronger signaling	fold induction	14.4
